Measurements of several laboratories.
Every numbered part comes from another study and shows a few of its results, in no order. Substitutions count along the parent as printed.

Sample 1
Target: Transcriptional repressor CTCF (CTCF, Homo sapiens, UniProt P49711, residues 1-727, full length assumed)
Technique: protein-binding microarray
Form: double-stranded DNA, one strand shown
Matrix: in vitro
Concentration: not given
Setting: k-mer, scored over probes, only values ≥0.25
Reading: higher = stronger binding
Construct (chain): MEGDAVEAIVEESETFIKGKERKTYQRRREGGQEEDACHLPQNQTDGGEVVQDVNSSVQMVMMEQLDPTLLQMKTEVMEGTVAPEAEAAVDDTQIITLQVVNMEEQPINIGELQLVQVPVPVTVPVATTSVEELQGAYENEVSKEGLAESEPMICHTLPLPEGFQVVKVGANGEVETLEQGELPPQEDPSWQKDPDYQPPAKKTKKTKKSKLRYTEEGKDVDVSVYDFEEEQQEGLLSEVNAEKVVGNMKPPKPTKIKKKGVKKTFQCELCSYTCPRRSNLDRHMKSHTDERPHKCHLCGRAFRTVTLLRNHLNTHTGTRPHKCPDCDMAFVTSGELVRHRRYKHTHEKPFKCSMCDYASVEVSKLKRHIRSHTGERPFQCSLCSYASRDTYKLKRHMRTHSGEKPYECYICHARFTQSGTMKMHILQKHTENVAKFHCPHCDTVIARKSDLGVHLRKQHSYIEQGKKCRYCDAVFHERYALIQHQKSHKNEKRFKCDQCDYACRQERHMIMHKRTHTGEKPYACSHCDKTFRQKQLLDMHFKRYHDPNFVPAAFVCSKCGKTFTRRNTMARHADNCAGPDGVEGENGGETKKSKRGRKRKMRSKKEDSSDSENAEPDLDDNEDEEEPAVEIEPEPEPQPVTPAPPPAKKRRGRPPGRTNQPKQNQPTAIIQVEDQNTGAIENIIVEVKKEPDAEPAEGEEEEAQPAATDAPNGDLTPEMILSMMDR
| Sequence | E-score |
| --- | --- |
| CAAATATA | 0.292 |
| ATTTTACG | 0.342 |
| ATCATTTA | 0.287 |
| ACTAATAA | 0.301 |
| TTACATAA | 0.304 |
| AAATACGT | 0.262 |
| AATAGTAA | 0.289 |
| ACAAATGT | 0.286 |
| AAAAAGCT | 0.327 |
| ATACGCAT | 0.292 |
| AACATGTA | 0.344 |

Sample 2
Target: Ras GTPase-activating protein-binding protein 1, C-terminal RGG region (G3BP1, Homo sapiens, UniProt Q13283)
Sequence of UniProt Q13283 (whole entry, looked up): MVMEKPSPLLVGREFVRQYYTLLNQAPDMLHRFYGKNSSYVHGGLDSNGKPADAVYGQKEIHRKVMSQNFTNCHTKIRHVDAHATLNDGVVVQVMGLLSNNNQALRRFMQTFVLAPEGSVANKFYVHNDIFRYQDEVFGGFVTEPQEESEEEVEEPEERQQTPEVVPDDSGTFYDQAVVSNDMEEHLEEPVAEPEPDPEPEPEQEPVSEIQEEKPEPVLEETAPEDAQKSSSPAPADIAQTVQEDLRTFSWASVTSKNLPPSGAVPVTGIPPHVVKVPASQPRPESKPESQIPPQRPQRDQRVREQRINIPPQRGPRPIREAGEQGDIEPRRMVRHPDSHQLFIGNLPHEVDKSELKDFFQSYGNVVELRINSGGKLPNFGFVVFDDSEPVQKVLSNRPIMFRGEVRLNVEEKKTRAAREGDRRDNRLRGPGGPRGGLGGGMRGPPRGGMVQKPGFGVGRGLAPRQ
Technique: RNA Bind-n-Seq
Form: RNA
Matrix: in vitro
Concentration: 1 µM
Setting: whole 134-nt RNA, ends assumed
Added: 150 mM KCl
Baseline: input library
Reading: higher = stronger binding
Shared flanks, not repeated: GGGAGUUCUACAGUCCGACGAUC … UGGAAUUCUCGGGUGUCAAGG
| Sequence | log2 enrichment |
| --- | --- |
| UCAAGUCCUGUGCUACACAUCGUAUGUACCGAAUCGGAAAGGAAAGGUUUUUGGAAAGUAUUAUGUUACGCCGUUCGGAUCUGCACUUCC | -1.38 |
| GGGGAGGUGGAUUUUGUUUAUUUUUUUAGCUCAUUUCCAGGGGUGGGAAUUUUUUUUUAAUAUGUGUCAUGAAUAAAGUUGUUUUUGAAA | 3.11 |
| UGGGAGGUGGAUUUUGUUUAUUUUUUUAGCUCAUUUCCAGGGGUGGGAAUUUUUUUUUAAUAUGUGUCAUGAAUAAAGUUGUUUUAGAAA | 2.3 |
| UCCUGUGCUACACAUCGUAUGUACCGAAUCAAACCCCCAAACCCCCAAACCCCCCCAAAAAAGUAUUAUGUUACGCCGUUCGGAUCUGCA | -0.679 |
| GUCCUGUGCUACACAUCGUAUGUACCGAAUCGGGGAAAAAAAGGGGAGGGGAAAGGGGAAAGUAUUAUGUUACGCCGUUCGGAUCUGCAC | 2.13 |
| UUCCCUGAAGAUGAGAUCCCAGAGAAGGCCUGCAGGCGCCUGCUUGAAGGGAGGCGGCAGAAGAAGACGAAGAAGCAGAAGCGUCUGCUC | -0.87 |
| CACAGACAACACGCAACCACACAGACACAGAGGGAAGGGGUUGGGAUGGGGACAGGGUGCACAGCAGGGCGGGGUAGGACCCCAGCCCCU | -0.532 |
| CUGUGCUACACAUCGUAUGUACCGAAUCGGGAAAAAAAGGAAAAAAAGGGGAAAAAAAGGGAAAGUAUUAUGUUACGCCGUUCGGAUCUG | -1.58 |
| UCAAGUCCUGUGCUACACAUCGUAUGUACCGAAUCGGGCCGGGGCCGGGGCCGGGAAAGUAUUAUGUUACGCCGUUCGGAUCUGCACUUC | -1.25 |
| CACAGACAACACGCACCCACACAGACACAGCGGGAAGGGGUUGGGAUGGGGACAGGGUGCACAGCAGGGCGGGGUAGGACCCCAGCCCCU | -0.154 |
| UGGGAGGUGGAUUUUGUUUAUUUUUUUAGCUCAUUUUCAGGGGUGGGAAUUUUUUUUUAAUAUGUGUCAUGAAUAAAGUUGUUUUUGAAA | 3.91 |

Sample 3
Target: Prothrombin, mature alpha-thrombin (F2, Homo sapiens, UniProt P00734)
Technique: aptamer microarray, sandwich
Form: DNA with 2'F-ANA
Matrix: in vitro
Concentration: 200 nM
Setting: whole 15-mer aptamer, many near background
Added: Cy3 exosite-II aptamer, 400 nM
Reading: higher = stronger binding
Sequence: GGTTGGTGTGGTTGG
| Modification | mean fluorescence intensity [a.u.] |
| --- | --- |
| 2'F-ANA at 1 3 4 5 7 8 10 11 13 15 | 49.5 |
| 2'F-ANA at 3 4 6 7 9 10 11 12 13 14 15 | 152 |
| 2'F-ANA at 1 4 6 11 13 14 15 | 68.8 |
| 2'F-ANA at 6 8 12 14 15 | 232 |
| 2'F-ANA at 1 2 9 10 11 12 13 14 | 50.1 |
| 2'F-ANA at 1 3 5 6 8 9 11 13 15 | 56.5 |
| 2'F-ANA at 1 2 4 6 7 9 12 | 240 |
| 2'F-ANA at 1 2 3 6 8 11 12 13 14 | 78.8 |
| 2'F-ANA at 1 3 5 7 9 11 13 14 | 46.9 |
| 2'F-ANA at 1 3 4 6 10 12 14 | 55.8 |
| 2'F-ANA at 1 3 7 8 9 10 12 13 14 15 | 69.6 |
| 2'F-ANA at 1 2 5 6 9 10 11 12 13 14 15 | 48.6 |
| 2'F-ANA at 1 5 6 7 12 13 | 82.8 |

Sample 4
Target: Interferon regulatory factor 7, full length, phosphomimetic (IRF7, Homo sapiens, UniProt Q92985, residues 1-503, S101K/S471D/S472D/S475D/S476D/S477D/S483D/S484D/S487D)
Technique: protein-binding microarray
Form: double-stranded DNA, one strand shown
Matrix: in vitro
Concentration: 250 nM
Setting: 60-bp whole probe
Added: salmon DNA 0.4 mg/ml
Baseline: random background probes
Reading: higher = stronger binding
Shared flanks, not repeated: GCCTAGCAC … GTCTTGATTCGCTTGACGCTGCTG
Construct (chain): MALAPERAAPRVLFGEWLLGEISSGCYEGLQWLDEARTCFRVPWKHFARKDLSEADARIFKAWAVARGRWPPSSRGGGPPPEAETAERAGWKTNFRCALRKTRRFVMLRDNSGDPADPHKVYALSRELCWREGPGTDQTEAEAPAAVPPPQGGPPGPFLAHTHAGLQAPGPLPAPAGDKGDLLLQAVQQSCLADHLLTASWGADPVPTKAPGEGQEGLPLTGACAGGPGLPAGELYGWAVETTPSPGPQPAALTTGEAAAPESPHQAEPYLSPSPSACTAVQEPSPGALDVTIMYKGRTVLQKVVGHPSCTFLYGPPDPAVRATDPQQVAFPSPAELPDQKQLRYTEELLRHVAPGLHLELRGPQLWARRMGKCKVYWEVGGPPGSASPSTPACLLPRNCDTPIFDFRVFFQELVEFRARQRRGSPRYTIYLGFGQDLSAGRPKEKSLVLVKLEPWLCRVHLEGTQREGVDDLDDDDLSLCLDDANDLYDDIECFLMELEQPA
| Sequence | log fluorescence [z-score] |
| --- | --- |
| GACGGTATCGACCTTCGGGACGTGCTA | -0.209 |
| TCAGGTTTCGGGTTTCGGTTAGTGCTA | 12.4 |
| GACGGTATCGGTTATCGGGACGTGCTA | 1.24 |
| GACGATTTCAGTTCCGAGATGTGCTAG | 0.749 |
| TTAGGGTTCGACTTTCGGTTAGTGCTA | 3.7 |
| GACGGTTTCGGACTGGGGTCGTGCTAG | 4.12 |
| CCCAGGACCCTGGAACTGGCGTGCTAG | -0.363 |
| TTTTTCTCCTATTTAAGACAGTGCTAG | 2.98 |
| CTAGATATCGGGTATCGATTAGTGCTA | 1.25 |
| TATCTTATCCTATCAGTTTAGTGCTAG | 1.23 |
| TACTGCTGGAGCTCAAGAGCGTGCTAG | -0.939 |
| GTCGGTATCGACACTGGGGACGTGCTA | -0.252 |
| GACGGTATCGGGACTAGGGACGTGCTA | -0.319 |

Sample 5
Target: CCNA2, cyclin fold, Cln2 fusion (human)
Technique: yeast growth competition, sequencing
Matrix: yeast
Setting: strong parent motif
Baseline: not given
Reading: higher = stronger binding
Starting sequence: CDC25A docking peptide (human); PPHRRRLLFACSP
| Variant | normalised enrichment score |
| --- | --- |
| HPHRRRLLFACSP [P1H] | 2.1 |
| PPHRRRLLFHCSP [A10H] | 2.93 |
| PPHRRRLLFVCSP [A10V] | 2.55 |
| PPHRRELLFACSP [R6E] | 1.02 |
| PPHRRRLQFACSP [L8Q] | 2.23 |
| PPHRRRLCFACSP [L8C] | 2.86 |
| PPHRRTLLFACSP [R6T] | 1.04 |
| PPHRRRALFACSP [L7A] | 1.81 |
| PPHRRCLLFACSP [R6C] | 0.957 |
| PPHRRRLLFACGP [S12G] | 3.01 |
| PPHRRRLLFMCSP [A10M] | 3 |
| PPHVRRLLFACSP [R4V] | 3.42 |
| PPHRLRLLFACSP [R5L] | 2.49 |

Sample 6
Target: ABI1, truncated, D143A, DHFR fusion (Arabidopsis thaliana)
Technique: DHFR PCA, deep sequencing
Matrix: yeast
Setting: methotrexate growth selection, single substitutions
Added: (+)-ABA 17 µM
Baseline: wild-type fitted maximum
Reading: higher = stronger binding
Starting sequence: PYL1, truncated, DHFR fusion (Arabidopsis thaliana); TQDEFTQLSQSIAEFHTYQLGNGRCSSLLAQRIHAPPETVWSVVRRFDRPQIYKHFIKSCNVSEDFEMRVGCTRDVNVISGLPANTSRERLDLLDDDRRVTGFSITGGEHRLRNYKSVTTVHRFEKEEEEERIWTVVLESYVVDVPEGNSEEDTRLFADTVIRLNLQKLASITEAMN
| Variant | relative binding score |
| --- | --- |
| T73Q | 80.4% |
| P146K | -0.625% |
| Q2R | 80.6% |
| I57M | 23% |
| R49K | 88.6% |
| H16F | -25.7% |
| P37T | 60.2% |
| H34N | 87% |
| D96S | 9.97% |
| D48Q | 11.4% |
| T73Y | 89.4% |
| H110F | 5.97% |
| S63V | 76.7% |

A few entries again (sample 2):
| Sequence | log2 enrichment |
| --- | --- |
| GGGGAGGUGGAUUUUGUUUAUUUUUUUAGCUCAUUUCCAGGGGUGGGAAUUUUUUUUUAAUAUGUGUCAUGAAUAAAGUUGUUUUUGAAA | 3.11 |
| UUCCCUGAAGAUGAGAUCCCAGAGAAGGCCUGCAGGCGCCUGCUUGAAGGGAGGCGGCAGAAGAAGACGAAGAAGCAGAAGCGUCUGCUC | -0.87 |
| UGGGAGGUGGAUUUUGUUUAUUUUUUUAGCUCAUUUCCAGGGGUGGGAAUUUUUUUUUAAUAUGUGUCAUGAAUAAAGUUGUUUUAGAAA | 2.3 |
| CACAGACAACACGCAACCACACAGACACAGAGGGAAGGGGUUGGGAUGGGGACAGGGUGCACAGCAGGGCGGGGUAGGACCCCAGCCCCU | -0.532 |
